Results pooled from the literature.
Lines come from different studies, so protocols differ. ± marks the error that the study gave.
Sequence of UniProt Q9NTG7 (whole entry, looked up): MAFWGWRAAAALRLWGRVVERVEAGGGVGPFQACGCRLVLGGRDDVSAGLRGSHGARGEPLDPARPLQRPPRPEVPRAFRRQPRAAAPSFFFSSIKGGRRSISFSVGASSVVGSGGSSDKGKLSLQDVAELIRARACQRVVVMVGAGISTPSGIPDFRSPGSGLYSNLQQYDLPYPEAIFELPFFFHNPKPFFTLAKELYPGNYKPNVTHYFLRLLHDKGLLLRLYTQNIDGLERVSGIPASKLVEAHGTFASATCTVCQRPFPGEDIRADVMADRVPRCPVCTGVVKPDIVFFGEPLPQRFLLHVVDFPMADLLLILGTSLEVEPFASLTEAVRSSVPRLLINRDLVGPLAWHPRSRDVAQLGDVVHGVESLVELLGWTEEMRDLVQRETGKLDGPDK
Sequence of UniProt P28222 (whole entry, looked up): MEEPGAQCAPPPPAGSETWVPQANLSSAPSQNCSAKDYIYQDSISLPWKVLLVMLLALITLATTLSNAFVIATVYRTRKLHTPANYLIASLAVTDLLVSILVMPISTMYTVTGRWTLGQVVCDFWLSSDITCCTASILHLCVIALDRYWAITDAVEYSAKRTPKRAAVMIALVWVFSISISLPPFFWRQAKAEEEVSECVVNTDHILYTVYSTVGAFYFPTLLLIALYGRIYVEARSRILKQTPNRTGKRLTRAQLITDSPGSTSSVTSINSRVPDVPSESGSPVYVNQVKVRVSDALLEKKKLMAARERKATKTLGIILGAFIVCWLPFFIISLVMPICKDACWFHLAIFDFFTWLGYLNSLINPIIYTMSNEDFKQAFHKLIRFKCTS
Sequence of UniProt Q9UPE1 (whole entry, looked up): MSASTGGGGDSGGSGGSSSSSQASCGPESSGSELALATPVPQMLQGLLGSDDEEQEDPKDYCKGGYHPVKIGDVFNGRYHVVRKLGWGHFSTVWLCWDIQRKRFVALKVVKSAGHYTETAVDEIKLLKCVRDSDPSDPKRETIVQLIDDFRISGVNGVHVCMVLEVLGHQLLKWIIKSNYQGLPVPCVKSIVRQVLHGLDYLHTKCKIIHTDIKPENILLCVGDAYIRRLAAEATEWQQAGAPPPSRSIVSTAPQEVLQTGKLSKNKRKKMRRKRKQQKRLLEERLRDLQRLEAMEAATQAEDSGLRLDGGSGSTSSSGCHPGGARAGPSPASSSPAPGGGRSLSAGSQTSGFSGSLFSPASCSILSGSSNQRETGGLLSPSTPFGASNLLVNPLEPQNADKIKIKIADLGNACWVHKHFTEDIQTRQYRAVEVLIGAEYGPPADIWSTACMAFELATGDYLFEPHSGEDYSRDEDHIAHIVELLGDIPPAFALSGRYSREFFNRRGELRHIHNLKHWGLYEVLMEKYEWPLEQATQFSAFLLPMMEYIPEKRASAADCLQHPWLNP
Sequence of UniProt Q01959 (whole entry, looked up): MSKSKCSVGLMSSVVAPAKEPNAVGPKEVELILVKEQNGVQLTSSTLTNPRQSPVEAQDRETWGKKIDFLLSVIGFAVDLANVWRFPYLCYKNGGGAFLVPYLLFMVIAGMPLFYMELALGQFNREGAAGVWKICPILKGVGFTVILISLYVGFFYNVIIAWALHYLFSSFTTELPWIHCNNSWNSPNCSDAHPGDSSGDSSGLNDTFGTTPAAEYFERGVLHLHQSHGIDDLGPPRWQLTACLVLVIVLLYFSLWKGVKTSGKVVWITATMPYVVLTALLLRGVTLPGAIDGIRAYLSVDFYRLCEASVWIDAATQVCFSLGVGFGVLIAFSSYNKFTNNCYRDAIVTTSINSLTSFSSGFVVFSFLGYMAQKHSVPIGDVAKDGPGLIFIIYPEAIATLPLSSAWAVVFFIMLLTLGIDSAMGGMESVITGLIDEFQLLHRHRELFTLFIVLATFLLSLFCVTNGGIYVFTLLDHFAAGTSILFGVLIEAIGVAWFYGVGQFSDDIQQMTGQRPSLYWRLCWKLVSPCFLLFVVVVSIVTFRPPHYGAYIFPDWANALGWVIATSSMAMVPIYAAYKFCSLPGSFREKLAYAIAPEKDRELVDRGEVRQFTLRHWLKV
Sequence of UniProt Q8BTI9 (whole entry, looked up): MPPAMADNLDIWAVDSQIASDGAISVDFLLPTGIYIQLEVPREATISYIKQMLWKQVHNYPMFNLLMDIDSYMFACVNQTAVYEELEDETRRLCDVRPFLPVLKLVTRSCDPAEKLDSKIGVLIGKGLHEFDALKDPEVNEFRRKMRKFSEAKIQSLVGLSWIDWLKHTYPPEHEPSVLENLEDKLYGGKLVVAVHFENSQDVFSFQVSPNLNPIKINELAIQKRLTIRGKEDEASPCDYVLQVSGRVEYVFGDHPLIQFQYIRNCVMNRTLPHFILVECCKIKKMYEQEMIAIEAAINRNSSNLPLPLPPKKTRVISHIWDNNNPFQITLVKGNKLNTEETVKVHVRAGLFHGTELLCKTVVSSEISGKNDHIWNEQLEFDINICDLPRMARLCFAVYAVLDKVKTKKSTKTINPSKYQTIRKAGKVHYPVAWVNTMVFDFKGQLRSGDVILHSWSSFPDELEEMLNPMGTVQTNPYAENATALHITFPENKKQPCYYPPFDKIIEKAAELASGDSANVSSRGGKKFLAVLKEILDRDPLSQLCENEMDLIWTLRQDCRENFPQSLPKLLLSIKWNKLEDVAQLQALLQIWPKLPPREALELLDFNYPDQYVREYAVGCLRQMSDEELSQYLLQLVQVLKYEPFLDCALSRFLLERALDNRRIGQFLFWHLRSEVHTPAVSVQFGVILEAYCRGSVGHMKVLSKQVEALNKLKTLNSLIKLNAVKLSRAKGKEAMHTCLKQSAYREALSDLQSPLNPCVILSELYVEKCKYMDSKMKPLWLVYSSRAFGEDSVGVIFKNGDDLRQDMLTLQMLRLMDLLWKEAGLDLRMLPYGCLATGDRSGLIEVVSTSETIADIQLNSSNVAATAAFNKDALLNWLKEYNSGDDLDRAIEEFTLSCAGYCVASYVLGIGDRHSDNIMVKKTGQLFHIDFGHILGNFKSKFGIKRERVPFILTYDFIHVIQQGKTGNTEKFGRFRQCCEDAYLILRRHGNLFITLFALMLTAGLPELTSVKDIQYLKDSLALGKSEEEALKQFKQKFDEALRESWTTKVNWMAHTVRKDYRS
Sequence of UniProt P43378 (whole entry, looked up): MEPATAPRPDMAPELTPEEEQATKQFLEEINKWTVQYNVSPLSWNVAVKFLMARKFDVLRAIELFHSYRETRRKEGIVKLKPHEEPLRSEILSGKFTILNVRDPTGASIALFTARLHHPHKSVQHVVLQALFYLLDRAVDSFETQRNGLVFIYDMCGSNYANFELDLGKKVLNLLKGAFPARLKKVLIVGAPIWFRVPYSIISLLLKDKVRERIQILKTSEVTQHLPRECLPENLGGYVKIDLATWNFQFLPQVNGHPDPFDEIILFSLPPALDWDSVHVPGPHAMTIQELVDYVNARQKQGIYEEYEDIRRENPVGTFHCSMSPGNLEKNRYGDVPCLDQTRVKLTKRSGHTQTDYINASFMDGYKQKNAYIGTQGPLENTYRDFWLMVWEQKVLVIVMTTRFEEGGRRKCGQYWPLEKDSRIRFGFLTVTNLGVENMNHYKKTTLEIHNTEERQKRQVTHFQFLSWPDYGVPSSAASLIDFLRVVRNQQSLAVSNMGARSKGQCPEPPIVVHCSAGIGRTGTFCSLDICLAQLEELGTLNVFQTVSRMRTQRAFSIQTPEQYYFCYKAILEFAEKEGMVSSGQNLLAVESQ
Sequence of UniProt Q9NZQ7 (whole entry, looked up): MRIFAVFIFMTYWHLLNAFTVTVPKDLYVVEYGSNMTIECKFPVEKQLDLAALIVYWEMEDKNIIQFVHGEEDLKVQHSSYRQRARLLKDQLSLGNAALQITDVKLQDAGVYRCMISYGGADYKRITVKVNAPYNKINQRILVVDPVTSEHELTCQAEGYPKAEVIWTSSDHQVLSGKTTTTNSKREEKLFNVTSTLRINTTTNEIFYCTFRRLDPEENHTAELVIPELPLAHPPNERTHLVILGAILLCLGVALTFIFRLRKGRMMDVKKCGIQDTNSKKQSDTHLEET
Sequence of UniProt P00690 (whole entry, looked up): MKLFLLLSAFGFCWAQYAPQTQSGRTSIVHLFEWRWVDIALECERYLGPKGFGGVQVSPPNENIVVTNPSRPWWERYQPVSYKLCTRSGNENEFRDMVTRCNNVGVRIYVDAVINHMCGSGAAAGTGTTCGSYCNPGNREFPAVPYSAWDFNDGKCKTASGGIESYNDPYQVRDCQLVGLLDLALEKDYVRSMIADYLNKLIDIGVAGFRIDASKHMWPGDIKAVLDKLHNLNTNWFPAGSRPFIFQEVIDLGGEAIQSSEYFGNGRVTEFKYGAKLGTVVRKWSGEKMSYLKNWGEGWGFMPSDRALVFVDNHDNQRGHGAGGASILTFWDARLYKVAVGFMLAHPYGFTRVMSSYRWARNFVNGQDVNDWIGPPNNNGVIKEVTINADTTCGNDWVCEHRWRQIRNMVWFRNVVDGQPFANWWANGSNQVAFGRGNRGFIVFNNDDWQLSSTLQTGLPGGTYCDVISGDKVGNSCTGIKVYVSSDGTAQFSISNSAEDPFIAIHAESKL

SMILES | target | assay | setting | inhibition [%]
COc1ccc(C[C@H](NC(=O)Cc2cccc(Oc3ccccc3)c2)C(=O)N[C@@H](Cc2c[nH]c3ccccc23)C(=O)NCc2ccc(C)cc2)cc1OC | trypsin | enzyme activity, inhibitor | 100 µM | -1
Brc1ccccc1-c1nnc(CSc2nnnn2-c2ccccc2)o1 | Sodium-dependent dopamine transporter (SLC6A3, Homo sapiens, UniProt Q01959) | ligand displacement, radioligand | 10 µM | -15
N#Cc1ccc(NC(=O)Nc2cccc(-c3ccccc3)c2)cc1 | SRSF protein kinase 3 (SRPK3, Homo sapiens, UniProt Q9UPE1) | binding, KINOMEscan competitive binding | concentration not given | 52
Cc1ccc(CNC(=O)[C@H](CCc2ccccc2)NC(=O)[C@H](CCc2ccccc2)NC(=O)Cc2cccc(Oc3ccccc3)c2)cc1 | chymotrypsin | enzyme activity, inhibitor | 100 µM | -3
C[Si]1(C[C@H](CN)CC(=O)O)CCCC1 | kainate receptor, rat | binding, radioligand binding | 70 µM, with: [3H]kainic acid | 2
CCCCCCCCCCCCCC(=S)NCCCC[C@H](NC(=O)OCc1ccccc1)C(=O)Nc1ccccc1 | NAD-dependent protein deacetylase sirtuin-3, mitochondrial (SIRT3, Homo sapiens, UniProt Q9NTG7) | enzyme activity, inhibitor | 100 µM | < 5
O=C1c2sc(-c3ccc(N4CCC(CO)CC4)nc3F)nc2CCN1c1cccnc1 | GABA transporter | radioligand binding | 1 µM, with: antagonist radioligand | -21
CSCC[C@H](NC(=O)[C@H](C)NC(=O)[C@H](Cc1c[nH]c2ccccc12)NC(=O)[C@H](Cc1ccccc1)NC(=O)[C@H](CCC(=O)O)NC(C)=O)C(=O)N[C@@H](CC(C)C)C(=O)N[C@@H](Cc1ccc(O)cc1)C(N)=O | Programmed cell death 1 ligand 1, with PD-1 (CD274, Homo sapiens, UniProt Q9NZQ7) | PD-1/PD-L1 binding, ELISA | 10 µM | 50.7 ± 5.5
O=C(Nc1ccc(C(F)F)cc1)[C@H](CC1CCCCC1)Nc1nn2c(=O)ccnc2s1 | Tyrosine-protein phosphatase non-receptor type 9 (PTPN9, Homo sapiens, UniProt P43378) | enzyme activity, inhibitor | 10 µM | -4
O=C(CN1CCO[C@@H](COc2cccc(Cl)c2)C1)N1CCc2ccccc21 | 5-hydroxytryptamine receptor 1B (HTR1B, Homo sapiens, UniProt P28222) | radioligand binding | concentration not given, with: [3H]5-CT | 10.7
CN(C)C/C=C/C(=O)Nc1ccc2nc(NCCCCCN(C)C)nc(NCCCCCCN(C)C)c2c1 | Histone-arginine methyltransferase CARM1 (CARM1, Homo sapiens, UniProt Q86X55) | enzyme activity, inhibitor, radiometric | 50 µM | 79
O=c1c(O)c(-c2ccc(O)cc2O)oc2c(Br)c(O)c(Br)c(O)c12 | Pancreatic alpha-amylase (AMY2, Sus scrofa, UniProt P00690) | enzyme activity, inhibitor | 50 µM, 30 min | 99.9
C[Si](C)(C)C[C@@H](CN)CC(=O)O | KATP channel, human | binding, radioligand binding | 75 µM, with: [3H]glyburide | 0
Cc1nc2c(F)cc(-c3nc(Nc4ccc(CNC(=O)CCCCCCC(=O)NO)cc4)ncc3F)cc2n1C(C)C | Phosphatidylinositol 4,5-bisphosphate 3-kinase catalytic subunit beta isoform, with p85 beta (Pik3cb, Mus musculus, UniProt Q8BTI9) | enzyme activity | 1 µM, p110β/p85β)(m mouse | 1
CCCCCCCCCCCCNC(=S)NCCCC[C@H](NC(=O)OCc1ccccc1)C(=O)N[C@@H](Cc1ccc(O)cc1)C(=O)N[C@@H](CCCNC(=N)N)C(N)=O | NAD-dependent protein deacetylase sirtuin-1 (SIRT1, Homo sapiens, UniProt Q96EB6) | enzyme activity, inhibitor | 1 µM | 53
C[C@H](NC(=O)[C@H](CC(=O)NCC(C)(C)C)NC(=O)CCc1ccccc1)C(=O)NCc1ccccc1Cl | trypsin | enzyme activity, inhibitor | 100 µM | 2
C=CS(=O)(=O)Nc1ccc2nc(NCCCCCN(C)C)nc(NCCCCCCN(C)C)c2c1 | Histone-lysine N-methyltransferase SETDB1, triple Tudor domain (SETDB1, Homo sapiens, UniProt Q15047) | – | 11.11 µM | 116

Repeated from above:
SMILES | target | assay | setting | inhibition [%]
Cc1nc2c(F)cc(-c3nc(Nc4ccc(CNC(=O)CCCCCCC(=O)NO)cc4)ncc3F)cc2n1C(C)C | Phosphatidylinositol 4,5-bisphosphate 3-kinase catalytic subunit beta isoform, with p85 beta (Pik3cb, Mus musculus, UniProt Q8BTI9) | enzyme activity | 1 µM, p110β/p85β)(m mouse | 1
CCCCCCCCCCCCNC(=S)NCCCC[C@H](NC(=O)OCc1ccccc1)C(=O)N[C@@H](Cc1ccc(O)cc1)C(=O)N[C@@H](CCCNC(=N)N)C(N)=O | NAD-dependent protein deacetylase sirtuin-1 (SIRT1, Homo sapiens, UniProt Q96EB6) | enzyme activity, inhibitor | 1 µM | 53
